Published values of several laboratories.
Compare with care: the assays were run in different laboratories. Values joined by “and” are separate records of one study, mostly repeats; a detail may differ. ± marks the error that the study gave.
Cell line: MCF7

COc1cc(O)ccc1C(C)=O  IC50 (72 h): 64 to 200 µM
Nc1ncc(-c2nc(N3CCOCC3)nc(N3CCOCC3)n2)c(C(F)F)n1  GI50 (72 h): 0.022 µM
COc1c(CCC[P+](c2ccccc2)(c2ccccc2)c2ccccc2)cc2c(c1OC)OCO2.[I-]  GI50 (SRB): -5.95 log M
Oc1cc(O)cc(-c2cc3ccc(O)cc3o2)c1  cell survival (cell growth, MTT; 12.5 µg/mL, 48 h): 75.3 ± 0.82%
O=C1CCCCC1=C1Sc2nc3ccc(S(=O)(=O)N4CCCC4)cc3nc2S1  mRNA level (qRT-PCR, item: p53; concentration not given, unit not given; reference: untreated): 4.98
COc1cc(CCC[P+](c2ccccc2)(c2ccccc2)c2ccccc2)c(OC)c2c1OCO2.[I-]  LC50 (SRB): > -4 log M
C/C1=C/C(=O)O[C@@H]2C[C@@H](CC[C@H](C)/C=C\C=C\CC1)O[C@@](OCCc1ccccc1)([C@@H]1CSC(=O)N1)C2  antiproliferative activity fold increase (concentration not given; reference: 1): 4.8 fold
C[C@]12CC[C@H](O)C[C@H]1CC[C@@H]1[C@@H]2CC[C@]2(C)[C@@H](c3ccc(=O)oc3)CC[C@]12O  mRNA level (RT-qPCR, item: GREB1; 50 nM, 48 h, unit not given, together with: estradiol; reference: untreated): 0.588 and 0.729 and 0.839
CC(C)=CCc1c(O)cc(O)cc1-c1cc2ccc(O)c(CC=C(C)C)c2o1  cell survival (cell growth, MTT; 1.8 µg/mL, 48 h): 94.14 ± 0.76%
N.N.[Cl][Pt][Cl]  selectivity ratio (dark; reference: IC50 MCF-10A over IC50 MCF7): 1.7
CC(C)N1CCC(NC2CCN(c3cccc(-c4cc5cc(F)ccc5[nH]4)c3)CC2)CC1  CC50: 6.34 µM
O=C(Oc1ccc(F)cc1)[c-]1cccc1.[Fe+2].c1cc[cH-]c1  IC50 (MTT; 72 h): no effect
COc1ccc(-n2nc(C(C)=O)s/c2=N\N=C(/C)c2ccc(NC(C)=O)cc2)cc1  viability (10 µM): 6.73%
CC(=NNC(=O)c1cccc(C)c1)c1ccc(NC(=O)Cn2c(=O)c3c(ncn3C)n(C)c2=O)cc1  mRNA level (qRT-PCR, item: TNF-alpha; 4.85 µM, 24 h; reference: untreated): 0.672 fold change
C[C@H]1[C@H](C)CC[C@]2(C(=O)O)CC[C@]3(C)C(=CC[C@@H]4[C@@]5(C)CC[C@H](O)C(C)(C)[C@@H]5CC[C@]43C)[C@H]12  cell survival (cell growth, MTT; 50 µg/mL, 48 h): 33.98 ± 0.16%
N#Cc1c[nH]cc1-c1cccc2c1OC(F)(F)O2  basal RARβ2 mRNA level (qRT-PCR; concentration not given, 4 h): decreased
COc1cccc2c1C(=O)c1c(O)c3c(c(O)c1C2=O)C[C@@](O)(C(=O)CO)C[C@@H]3O[C@H]1C[C@H](N)[C@H](O)[C@H](C)O1  growth percent (sulforhodamine B; 10 µg/mL, 48 h; negative means cell kill): -81.3%
O=c1ccc2cc(O)ccc2[nH]1  IC50 (72 h): > 200 µM
C#Cc1cccc(Nc2ncnc3cc(OCCOC)c(OCCOC)cc23)c1  sublethal dose (MTT): 5 µM

For quick reference, copied from above:
COc1cccc2c1C(=O)c1c(O)c3c(c(O)c1C2=O)C[C@@](O)(C(=O)CO)C[C@@H]3O[C@H]1C[C@H](N)[C@H](O)[C@H](C)O1  growth percent (sulforhodamine B; 10 µg/mL, 48 h; negative means cell kill): -81.3%
COc1ccc(-n2nc(C(C)=O)s/c2=N\N=C(/C)c2ccc(NC(C)=O)cc2)cc1  viability (10 µM): 6.73%
